Experimental data collected from several papers.

Compound | cell line | assay | conditions | how to read | measurement | result
C=CC(=O)Nc1cc(Nc2nccc(-n3ccc4nc(OC)ccc43)n2)c(OC)cc1N(C)CCNC | PC-9, Ba/F3 EGFR G719A | measured: phospho-EGFR, phospho-AKT, phospho-ERK | concentration not given, 6 h |  | EGFR phosphorylation | inhibited
COc1cc(CNC(=O)C[C@H](C)CCC=C(C)C)ccc1OCc1cn(-c2ccc(C#N)cc2)nn1 | CAKI-1 | SRB | 10 µM, 48 h |  | growth percent | 62.6%
Nc1cc(-c2ccncc2)c[nH]c1=O | hiPSC cardiac tissues 3D | active force | 15 min per concentration, paced at 1 Hz serum-free |  | minimum effective concentration | 30 µM
CCN(CC)CC(=O)N1CCN(c2nc(NCc3nc4cc(Cl)c(Cl)cc4[nH]3)c3ncn(CC)c3n2)CC1 | MDA-MB-231 | western blot | concentration not given, 6 h |  | RNA Pol II Ser2 phosphorylation | decreased
CN1CCN(C(=O)N(CCCCCCC(=O)NO)c2ccc(-c3ccc4cnn(C)c4c3)cc2)CC1 | multiple myeloma cells | immunoblot, measured: mTOR and p70S6K | concentration not given |  | phosphorylation | decreased
N=C(N/N=C/c1ncc[nH]1)N/N=C/c1ncc[nH]1 | PANC-1 | crystal violet | 72 h | baseline: IC50 hTERT-HPNE over IC50 PANC-1 | selectivity ratio | 26.6
COC(=O)CC[C@@H](NC(=O)[C@@H](Cc1ccc(OP(=O)(O)O)cc1)NC(=O)[C@@H](Cc1ccccc1)NC(=O)[C@@H](Cc1ccccc1)NC(=O)Cc1ccc2ccccc2c1)C(=O)OC | SAOS-2 | MTT | 10 µM |  | viability | 11%
COc1cc(CNC(=O)C[C@H](C)CCC=C(C)C)ccc1OCc1cn(-c2ccc(Cl)c(Cl)c2)nn1 | NCI-H322M | SRB | 10 µM, 48 h |  | growth percent | 82.5%
CCN(CC)CC(=O)Nc1cccc(-n2cc(-c3ccc4ccc(-c5cn(-c6cccc(NC(=O)CN(CC)CC)c6)nn5)cc4c3)nn2)c1 | RCC4 | luciferase reporter | 10 x IC50, 4 h, hypoxia | baseline: hypoxic untreated | HRE reporter activity | 14.8%
CC/C=C\C/C=C\C/C=C\C/C=C\C/C=C\C/C=C\CCC(=O)Nc1ccn(C2OC(CO)C(O)C2(F)F)c(=O)n1 (stereo not shown) | SK-MEL-5 | NCI60 screen |  |  | TGI | 17.1 µM
O=C1NC(=O)C(=Cc2ccc(-c3cccc(C(F)(F)F)c3)o2)S1 | activated PBMC |  | 1 µM, 0.5 h |  | NADH level increase | 82%
CC(C)c1cccc(C(C)C)c1-n1ccn(-c2c(C(C)C)cccc2C(C)C)c1=[Se].[Cl][Au] | A2780 ADR | MTT |  | baseline: A2780 ADR over A2780 | resistance factor | 0.5
COc1ccc(C2=NN(C3=NC(=O)C(=Cc4ccc(O)cc4)S3)C(c3ccc(F)cc3)C2)cc1 (stereo not shown) | T47D | PI flow cytometry | concentration not given, 24 h |  | cells in %G2/M phase | 5.24%
COc1cc(CNC(=O)C[C@H](C)CCC=C(C)C)ccc1OCc1cn(-c2ccc(F)cc2)nn1 | NCI-H322M | SRB | 10 µM, 48 h |  | growth percent | 105%
CC(C)Cc1ccc(C(C)C(=O)[O][Pt]([NH2])([NH2])([Cl])([Cl])[O]C(=O)CCCc2ccccc2)cc1 (stereo not shown) | PSN1 |  | 1 µM, 24 h |  | depolarised mitochondria cells | 25 to 30%
COc1cc(CNC(=O)C[C@H](C)CCC=C(C)C)ccc1OCc1cn(-c2ccc(Cl)cc2Cl)nn1 | SN12C | SRB | 10 µM, 48 h |  | growth percent | 64.8%
CC(=O)OC[C@H]1O[C@@H](Sc2sc(C(=O)c3ccc(Br)cc3)c(N)c2-c2nc3ccccc3s2)[C@H](OC(C)=O)[C@@H](OC(C)=O)[C@H]1OC(C)=O | CAKI-1 | SRB | 10 µM, 48 h | baseline: untreated | growth | 67.6%
CC(Cc1ccc(Cl)cc1)=C(c1ccc(Cl)cc1)c1ccc(OCCN(C)C)cc1 | SK-MEL-5 | cell growth or viability, SRB |  |  | GI50 | 4.4 µM
COc1cc(CNC(=O)C[C@H](C)CCC=C(C)C)ccc1OCc1cn(-c2ccc(Br)cc2)nn1 | SK-MEL-5 melanoma cells | SRB | 10 µM, 48 h |  | growth percent | 55.6%

Repeated from above:
Compound | cell line | assay | conditions | how to read | measurement | result
CC/C=C\C/C=C\C/C=C\C/C=C\C/C=C\C/C=C\CCC(=O)Nc1ccn(C2OC(CO)C(O)C2(F)F)c(=O)n1 (stereo not shown) | SK-MEL-5 | NCI60 screen |  |  | TGI | 17.1 µM
C=CC(=O)Nc1cc(Nc2nccc(-n3ccc4nc(OC)ccc43)n2)c(OC)cc1N(C)CCNC | PC-9, Ba/F3 EGFR G719A | measured: phospho-EGFR, phospho-AKT, phospho-ERK | concentration not given, 6 h |  | EGFR phosphorylation | inhibited
